Experimental data from different studies.
Each line is one published result; not all experiments were run side by side. Numbers after ± are the reported error.

CC(C)(C)C(=O)OCOP(=O)(OCOC(=O)C(C)(C)C)C1CCCN(O)C1=O (stereo not shown)  GI50 (Malme-3M): 0.425 µM
O=C(C[Se]C(=O)c1cc2ccccc2o1)Nc1cccc(C(F)(F)F)c1  CC50 (NCI60 CNS subpanel; NCI60 five-dose screen): 6.12 µM
COc1ccccc1-c1ccncc1C(=O)Nc1nnc(OCc2ccc(Cl)cc2)s1  colony survival (HCT-116 BRCA2 wild-type; 0.5 µM; relative to: untreated): 98%
CSCC[C@H](N)C(=O)N[C@@H](C)C(=O)N[C@@H](Cc1c[nH]c2ccccc12)C(=O)N[C@@H](Cc1c[nH]cn1)C(=O)N[C@@H](CC(=O)O)C(=O)N[C@@H](CC(=O)O)C(=O)N[C@@H](CCC(=O)O)C(=O)N[C@@H](CCC(=O)O)C(=O)N[C@@H](Cc1ccccc1)C(=O)N[C@@H](C)C(=O)N[C@@H](CCCNC(=N)N)C(=O)N[C@@H](CCCNC(=N)N)C(=O)N[C@@H](CCCNC(=N)N)C(=O)N[C@@H](CCCNC(=N)N)C(=O)NCCCCCC(=O)NCCCCC(NC(=O)CCCCCNC(=O)[C@H](CCCNC(=N)N)NC(=O)[C@H](CCCNC(=N)N)NC(=O)[C@H](CCCNC(=N)N)NC(=O)[C@H](CCCNC(=N)N)NC(=O)[C@H](C)NC(=O)[C@H](Cc1ccccc1)NC(=O)[C@H](CCC(=O)O)NC(=O)[C@H](CCC(=O)O)NC(=O)[C@H](CC(=O)O)NC(=O)[C@H](CC(=O)O)NC(=O)[C@H](Cc1c[nH]cn1)NC(=O)[C@H](Cc1c[nH]c2ccccc12)NC(=O)[C@H](C)NC(=O)[C@@H](N)CCSC)C(=O)NCCCCC(NC(=O)C(CCCCNC(=O)CCCCCNC(=O)[C@H](CCCNC(=N)N)NC(=O)[C@H](CCCNC(=N)N)NC(=O)[C@H](CCCNC(=N)N)NC(=O)[C@H](CCCNC(=N)N)NC(=O)[C@H](C)NC(=O)[C@H](Cc1ccccc1)NC(=O)[C@H](CCC(=O)O)NC(=O)[C@H](CCC(=O)O)NC(=O)[C@H](CC(=O)O)NC(=O)[C@H](CC(=O)O)NC(=O)[C@H](Cc1c[nH]cn1)NC(=O)[C@H](Cc1c[nH]c2ccccc12)NC(=O)[C@H](C)NC(=O)[C@@H](N)CCSC)NC(=O)CCCCCNC(=O)[C@H](CCCNC(=N)N)NC(=O)[C@H](CCCNC(=N)N)NC(=O)[C@H](CCCNC(=N)N)NC(=O)[C@H](CCCNC(=N)N)NC(=O)[C@H](C)NC(=O)[C@H](Cc1ccccc1)NC(=O)[C@H](CCC(=O)O)NC(=O)[C@H](CCC(=O)O)NC(=O)[C@H](CC(=O)O)NC(=O)[C@H](CC(=O)O)NC(=O)[C@H](Cc1c[nH]cn1)NC(=O)[C@H](Cc1c[nH]c2ccccc12)NC(=O)[C@H](C)NC(=O)[C@@H](N)CCSC)C(N)=O (stereo partly shown)  nuclei with nuclear NFATc1 (mouse bone marrow macrophages; immunocytochemistry; 3 µM, with: RANKL): 79%
Cc1cc(Oc2nc(N3CC[C@@H](c4ccncc4)C3)ncc2F)[nH]n1  IC50 (OVCAR-4; cell proliferation): 52.5 µM
CC(=O)NCSC[C@H](NC(=O)[C@@H]1CCCN1C(=O)[C@H](C)NC(=O)[C@@H](NC(=O)CNC(=O)[C@@H](NC(=O)[C@H](Cc1c[nH]c2ccccc12)NC(=O)[C@H](C)NC(=O)CNC(=O)[C@H](CO)NC(=O)[C@H](C)NC(=O)[C@@H]1CCCN1C(=O)[C@H](Cc1c[nH]c2ccccc12)NC(=O)[C@H](C)NC(=O)[C@H](C)NC(=O)[C@@H](N)Cc1ccc(O)cc1)[C@@H](C)O)[C@@H](C)O)C(=O)N[C@@H](CO)C(=O)N[C@@H](C)C(=O)NCC(=O)N[C@H](C(=O)NCCOCCOCCOCCOCCOCCOCCOCCOCCOCCOCCOCCOCCC(=O)N[C@@H](CS)C(N)=O)[C@@H](C)O  selectivity ratio (MiaPaCa pancreatic cancer; cell binding, phage binding, item: output/input phage; 10 min, 37 °C; relative to: control phage): 90 ± 20
O=C(C[Se]C(=O)c1ccco1)Nc1cccc(C(F)(F)F)c1  mean growth percent (NCI60 colon subpanel; cell growth; 10 µM, 48 h, one-dose): 22.7%
NC(=S)N/N=C/c1ccc(OCc2ccccc2)cc1  glutathione peroxidase activity (OD450) (IMR-32; item: GPX3; 300 µg/mL, 24 h; higher = more activity): 0.124 a.u.
CSCC[C@H](NC(=O)[C@@H](NC(=O)[C@H](CCC(N)=O)NC(=O)[C@H](CO)NC(=O)[C@@H](N)C(C)C)[C@@H](C)O)C(=O)N[C@@H](CCCNC(=N)N)C(=O)N[C@@H](CCC(N)=O)C(=O)N[C@H](C(=O)N[C@@H](C)C(=O)N[C@H](C(=O)N1CCC[C@H]1C(=O)N[C@@H](CC(C)C)C(=O)N[C@@H](CC(C)C)C(=O)N[C@@H](Cc1c[nH]c2ccccc12)C(=O)N[C@@H](Cc1ccccc1)C(=O)N[C@@H](Cc1c[nH]c2ccccc12)C(=O)N[C@H](C(=O)NCC(=O)N[C@@H](CO)C(=O)N[C@@H](CC(C)C)C(=O)NCCOCCOCCOCCOCCOCCOCCOCCOCCOCCOCCOCCOCCC(=O)N[C@@H](CS)C(N)=O)[C@@H](C)O)C(C)C)[C@@H](C)O  selectivity ratio (LNCaP prostate carcinoma; cell binding, phage binding, item: output/input phage; 10 min, 37 °C; relative to: control phage): 1.8 ± 1.1
CC(=O)OC1C(=O)C2(C)C(O)CC3OCC3(OC(C)=O)C2C(OC(=O)c2cccc(OC(F)(F)F)c2)C2(O)CC(OC(=O)C(O)C(C=C(C)C)NC(=O)OC(C)(C)C)C(C)=C1C2(C)C (stereo not shown)  potency ratio (MCF7/PTX paclitaxel-resistant; cell viability; relative to: compound over paclitaxel): 120

A few entries again:
O=C(C[Se]C(=O)c1ccco1)Nc1cccc(C(F)(F)F)c1  mean growth percent (NCI60 colon subpanel; cell growth; 10 µM, 48 h, one-dose): 22.7%
